Published values pooled from the literature.
Every numbered part comes from another study and shows a few of its results, in no order. Substitutions count along the parent as printed.

Set 1 — technique: RNAcompete; form: RNA; medium: in vitro; concentration: 20 nM; notes: 7-mer, probes averaged, single round; relative to: mean of 7-mers; reading: higher = stronger binding
Target: PABPC1L2, full length, GST fusion (mouse, UniProt A0ABA7IW68)
Construct (chain): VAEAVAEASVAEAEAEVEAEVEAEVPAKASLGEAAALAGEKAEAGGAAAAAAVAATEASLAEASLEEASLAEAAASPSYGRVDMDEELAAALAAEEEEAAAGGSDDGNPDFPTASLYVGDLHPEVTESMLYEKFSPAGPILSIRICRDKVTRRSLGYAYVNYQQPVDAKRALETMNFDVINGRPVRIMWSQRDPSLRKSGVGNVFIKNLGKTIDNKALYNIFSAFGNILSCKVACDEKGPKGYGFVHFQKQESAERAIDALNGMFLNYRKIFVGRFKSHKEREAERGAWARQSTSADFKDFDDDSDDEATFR
Oligonucleotide | 7-mer Z-score
AAAGCGU | 0.78
AGGGAUU | 0.0932
GAUGGAG | -0.00108
AGUCGCC | -0.333
UUGCUCA | -0.235
UGGUCGC | -0.251
UCCGGGG | -0.0047
GUCAUCC | -0.378

Set 2 — technique: EMSA with sequencing; form: double-stranded DNA, one strand shown; medium: in vitro; concentration: 10 and 20 nM; relative to: negative control set to 0; reading: higher = stronger binding
Target: Hepatocyte nuclear factor 3-alpha (Foxa1, Mus musculus, UniProt P35582, residues 1-468, full length assumed)
Notes: whole designed probe, mean of two concentrations, ends assumed
Constant ends, left off below: GTGAGCGGTGCCCATTGATGGGGAAC … TTTCACTGGGATCGTGGGGAC
Construct (chain): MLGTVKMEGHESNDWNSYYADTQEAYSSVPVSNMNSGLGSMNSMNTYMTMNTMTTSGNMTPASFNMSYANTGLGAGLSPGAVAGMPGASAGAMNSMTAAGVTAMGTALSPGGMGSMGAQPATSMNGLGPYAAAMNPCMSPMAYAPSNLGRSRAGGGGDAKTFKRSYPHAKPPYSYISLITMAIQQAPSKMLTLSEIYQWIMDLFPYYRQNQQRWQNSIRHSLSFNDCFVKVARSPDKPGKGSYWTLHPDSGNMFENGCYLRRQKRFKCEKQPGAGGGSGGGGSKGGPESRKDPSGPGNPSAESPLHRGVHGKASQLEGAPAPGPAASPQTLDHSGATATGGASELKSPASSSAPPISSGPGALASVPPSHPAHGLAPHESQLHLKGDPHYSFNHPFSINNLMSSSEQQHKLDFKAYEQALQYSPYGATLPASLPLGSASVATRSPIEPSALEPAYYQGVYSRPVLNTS
Oligonucleotide | normalised bound fraction
ATCTTCCCCCTCTTCCTTGCCCCACCAGCTCACCTTCCCGGGTTATTTGCACAAAGGAAAATAAATAAAGCCGGCATTCGTTAACGCAGTTCTGGCGCAAACTGCTGTTTGCTCTGCATGAATCATGGTCCTTACGCGACGCCAGGCTCCGGGAGAGCAAAGCACCGTGTCAGGCGCATGATCCGGGCTCGCC | 0.383 ratio
ATCTTCCCCCTCTTCCTTGCCCCACCAGCTCACCTACGGGGGTTATTTGCAGATAGGAAAATAAATAAAGCCGGCATTCGTTAACCCTCTTCACGCGCATACTGCTGTTTGCTCTGGATCTAACATGGTCCTTTGGCGAGGCGTGGCTCCGGGAGAGCAAAGCACCGTGTCAGGGCCATGATCCGGGCTCGCC | 0.34 ratio
AATGGAATAATTCCTTTACAGGATCAGAACACGTAGGAAGCCAAATTAATAATTGAAAGCTAGATTGTTTAGCAAAGAACCAGAGCATAAGAAAGTAATTTACCTTAAGGGATATTTCAAGGCCATGAGTACAGCCTAACAGAGTGATGGAAGCAGGGACTCTTGCAGTTAAGCCACTGGAATTTGAATTCCA | -0.0288 ratio
ATCTTCCCCCTCTTCCTTGCCCCACCAGCTCACCTTCCCGGGTTATTTGCAGATAGGAAAATAAATAAAGCCGGCATTCGTTAACCCTCTTCTGGCGCAAACTGCTGTTTGCTCTGGATGAATCATGGTCCTTTGGCGAGGCGTGGCTCCGGGAGAGCAAAGCACCGTGTCAGGGCCATGATCCGGGCTCGCC | 0.34 ratio
TTACCACCTCCACCTCTGCTACTTTCTGCTCTAGAAACTACTTTAATGAAAAGAGAAAAAGCTAGTTGACTAGCATGTTGATTTTATGCCCAATGCAAATACAGACCAACTGACTCATCCTGAAAATATTTAGCAGGGAGAAAAAAAAAAAGAAGAAAATTTTTTTTAGTGAGTAGCCCACATTATGATACTT | 0.315 ratio
CCCTCTTCTAACTCAGAAGGGTTGAAGCAGATAATGAAACCAGATACCTATGGGAATTAGTCAGCATTTCTTTATGTGAGTAGTTGTACTTGAGTAAATATGCAATCCTGTTTACCAATCTATTCTGTTTTACTCAGTTATTTGAACTCTTTTTTCTCTTTAAAAACAGCAAAAGGAATGAAGGAAGGAAAGC | 0.259 ratio
GCGACGGCGCCCAATGAGCGGCCAGGATGTTGGAGCGCCGGCGGCGGTCCGGGCGCTCGCTGGCTGAGGGACGGCGGCCGCCGCCATGATGCTTGTTTGCTTTCAATGAAAACGAGGGGGGCGCGGAGGAGGAGGCGGCGGCGTCGGTGGCGGCGGCGACGGCGGCGCGGAGGCGAAGGCAGCGGCGGGCGCA | 0.152 ratio
ACCTCATCTCAGGTATTTTCTGATGACGTATGTCTCAAGAAGAGTTCCTAGTAGCATCTGTGGTACCAGTTATGGAATTCTGAGTTTCTCTACTGTTGACTTTTTCAAAGATCAGGGATCCAGGTCTAGCATCCTCACAATTTGTCTAAGTGCTGAATGAATGGAGTACTTAGAAAAGGCCTCTATTTAAGAT | 0.164 ratio

Set 3 — target: CCNB2, cyclin fold, Cln2 fusion (human); technique: yeast growth competition, sequencing; medium: yeast; notes: weak parent motif; relative to: not given; reading: higher = stronger binding
Starting sequence: CDKN1A docking peptide (human); SKACRRLFGPVDS; partner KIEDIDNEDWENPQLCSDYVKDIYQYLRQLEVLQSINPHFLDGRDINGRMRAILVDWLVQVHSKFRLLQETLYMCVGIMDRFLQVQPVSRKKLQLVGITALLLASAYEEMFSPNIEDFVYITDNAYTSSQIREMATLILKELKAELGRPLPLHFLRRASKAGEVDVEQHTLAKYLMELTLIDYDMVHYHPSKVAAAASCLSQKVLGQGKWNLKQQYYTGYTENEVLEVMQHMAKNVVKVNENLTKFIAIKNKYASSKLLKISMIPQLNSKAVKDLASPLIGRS
Substitution | normalised enrichment score
SKACRRLFGPVMS [D12M] | 0.603
SKACRRLKGPVDS [F8K] | 0.333
SQACRRLFGPVDS [K2Q] | 0.214
SKACRRLFGPVYS [D12Y] | 0.179
SKACRRLFPPVDS [G9P] | 0.283
SKAGRRLFGPVDS [C4G] | 0.43
SWACRRLFGPVDS [K2W] | 0.117
SKKCRRLFGPVDS [A3K] | 0.764

Single results of other studies
Sequence | target | assay | test system | conditions | endpoint | value
MSAIVSCRY | HLA class I histocompatibility antigen, A alpha chain, allele A*80:01 (Homo sapiens, UniProt P04439) | peptide-MHC binding | peptide | concentration not given | binding | inactive

A few entries again (set 3):
Substitution | normalised enrichment score
SKACRRLFGPVMS [D12M] | 0.603
SKACRRLKGPVDS [F8K] | 0.333
SQACRRLFGPVDS [K2Q] | 0.214
SKACRRLFGPVYS [D12Y] | 0.179
